Published values gathered from unrelated publications.
Each numbered part is a random draw from the data of one study; scales do not carry over between parts.
Sequence of UniProt Q9H2K8 (whole entry, looked up): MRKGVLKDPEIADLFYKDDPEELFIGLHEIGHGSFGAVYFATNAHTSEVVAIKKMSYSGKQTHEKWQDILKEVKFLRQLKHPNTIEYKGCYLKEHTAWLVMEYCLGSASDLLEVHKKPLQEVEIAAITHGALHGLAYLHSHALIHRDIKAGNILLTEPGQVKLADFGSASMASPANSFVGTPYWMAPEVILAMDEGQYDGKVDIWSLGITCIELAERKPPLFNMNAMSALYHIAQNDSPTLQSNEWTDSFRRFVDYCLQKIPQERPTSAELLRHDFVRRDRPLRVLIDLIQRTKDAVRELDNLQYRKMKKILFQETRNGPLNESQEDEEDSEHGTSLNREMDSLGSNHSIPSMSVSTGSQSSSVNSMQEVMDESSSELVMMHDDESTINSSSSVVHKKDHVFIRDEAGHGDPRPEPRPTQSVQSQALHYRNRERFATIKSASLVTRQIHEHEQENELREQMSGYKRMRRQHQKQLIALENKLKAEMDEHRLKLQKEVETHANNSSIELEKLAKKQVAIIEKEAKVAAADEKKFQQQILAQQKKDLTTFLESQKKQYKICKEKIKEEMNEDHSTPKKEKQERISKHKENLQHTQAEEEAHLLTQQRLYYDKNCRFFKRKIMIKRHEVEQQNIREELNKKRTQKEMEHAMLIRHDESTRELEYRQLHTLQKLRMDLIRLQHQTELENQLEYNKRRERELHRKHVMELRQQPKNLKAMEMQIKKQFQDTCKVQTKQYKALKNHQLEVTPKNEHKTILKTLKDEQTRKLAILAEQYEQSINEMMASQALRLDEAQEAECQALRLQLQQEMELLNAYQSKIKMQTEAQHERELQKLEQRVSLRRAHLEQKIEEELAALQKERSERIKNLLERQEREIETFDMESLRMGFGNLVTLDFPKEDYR
Sequence of UniProt O94921 (whole entry, looked up): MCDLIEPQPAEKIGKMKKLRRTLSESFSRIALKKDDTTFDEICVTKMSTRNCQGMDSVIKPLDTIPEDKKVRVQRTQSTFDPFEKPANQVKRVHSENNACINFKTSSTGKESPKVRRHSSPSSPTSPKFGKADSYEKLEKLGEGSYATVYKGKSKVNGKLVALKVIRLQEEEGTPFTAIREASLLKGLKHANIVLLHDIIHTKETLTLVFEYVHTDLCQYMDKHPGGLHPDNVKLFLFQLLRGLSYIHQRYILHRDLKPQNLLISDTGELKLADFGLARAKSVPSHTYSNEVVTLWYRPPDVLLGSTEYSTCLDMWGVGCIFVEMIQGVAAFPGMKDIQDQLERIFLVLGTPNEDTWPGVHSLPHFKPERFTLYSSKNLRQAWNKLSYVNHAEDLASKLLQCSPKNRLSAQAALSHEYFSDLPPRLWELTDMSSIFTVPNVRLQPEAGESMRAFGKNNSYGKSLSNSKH
Sequence of UniProt Q13233 (whole entry, looked up): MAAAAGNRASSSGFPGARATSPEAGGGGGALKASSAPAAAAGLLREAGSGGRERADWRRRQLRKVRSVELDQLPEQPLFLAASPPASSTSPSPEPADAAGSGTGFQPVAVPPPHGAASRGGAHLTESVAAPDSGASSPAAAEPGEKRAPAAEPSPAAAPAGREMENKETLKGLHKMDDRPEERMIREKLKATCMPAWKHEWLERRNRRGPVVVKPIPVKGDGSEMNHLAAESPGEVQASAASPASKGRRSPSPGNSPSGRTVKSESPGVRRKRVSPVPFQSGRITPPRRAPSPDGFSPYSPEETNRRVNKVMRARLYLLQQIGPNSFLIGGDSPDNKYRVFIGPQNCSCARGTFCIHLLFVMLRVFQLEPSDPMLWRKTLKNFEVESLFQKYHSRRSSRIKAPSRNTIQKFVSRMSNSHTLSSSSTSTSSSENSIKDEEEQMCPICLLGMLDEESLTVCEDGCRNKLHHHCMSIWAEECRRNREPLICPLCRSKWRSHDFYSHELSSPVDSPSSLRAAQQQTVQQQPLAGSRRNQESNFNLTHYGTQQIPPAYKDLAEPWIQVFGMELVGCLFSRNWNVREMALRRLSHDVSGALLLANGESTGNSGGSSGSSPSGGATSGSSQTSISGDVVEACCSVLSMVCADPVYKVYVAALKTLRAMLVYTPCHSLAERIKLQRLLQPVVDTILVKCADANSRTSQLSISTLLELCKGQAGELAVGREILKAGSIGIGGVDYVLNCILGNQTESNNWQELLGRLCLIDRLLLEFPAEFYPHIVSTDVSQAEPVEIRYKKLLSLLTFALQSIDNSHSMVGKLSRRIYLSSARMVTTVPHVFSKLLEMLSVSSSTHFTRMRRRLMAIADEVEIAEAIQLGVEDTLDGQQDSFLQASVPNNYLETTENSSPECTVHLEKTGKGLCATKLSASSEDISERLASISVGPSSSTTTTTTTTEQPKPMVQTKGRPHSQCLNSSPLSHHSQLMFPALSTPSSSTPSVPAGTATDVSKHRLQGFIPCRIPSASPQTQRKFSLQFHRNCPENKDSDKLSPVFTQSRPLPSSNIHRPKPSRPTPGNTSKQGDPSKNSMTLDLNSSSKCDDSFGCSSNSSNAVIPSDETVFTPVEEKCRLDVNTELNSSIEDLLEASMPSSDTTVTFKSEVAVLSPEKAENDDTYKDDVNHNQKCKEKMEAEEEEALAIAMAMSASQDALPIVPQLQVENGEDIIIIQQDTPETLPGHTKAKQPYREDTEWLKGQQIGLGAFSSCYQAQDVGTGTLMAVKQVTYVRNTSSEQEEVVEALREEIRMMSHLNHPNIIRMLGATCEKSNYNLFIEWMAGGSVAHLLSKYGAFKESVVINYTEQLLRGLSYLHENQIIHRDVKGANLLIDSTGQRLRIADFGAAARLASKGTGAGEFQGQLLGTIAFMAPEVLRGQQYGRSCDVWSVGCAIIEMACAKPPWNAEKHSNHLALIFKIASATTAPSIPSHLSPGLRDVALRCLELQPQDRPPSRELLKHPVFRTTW
Sequence of UniProt Q13188 (whole entry, looked up): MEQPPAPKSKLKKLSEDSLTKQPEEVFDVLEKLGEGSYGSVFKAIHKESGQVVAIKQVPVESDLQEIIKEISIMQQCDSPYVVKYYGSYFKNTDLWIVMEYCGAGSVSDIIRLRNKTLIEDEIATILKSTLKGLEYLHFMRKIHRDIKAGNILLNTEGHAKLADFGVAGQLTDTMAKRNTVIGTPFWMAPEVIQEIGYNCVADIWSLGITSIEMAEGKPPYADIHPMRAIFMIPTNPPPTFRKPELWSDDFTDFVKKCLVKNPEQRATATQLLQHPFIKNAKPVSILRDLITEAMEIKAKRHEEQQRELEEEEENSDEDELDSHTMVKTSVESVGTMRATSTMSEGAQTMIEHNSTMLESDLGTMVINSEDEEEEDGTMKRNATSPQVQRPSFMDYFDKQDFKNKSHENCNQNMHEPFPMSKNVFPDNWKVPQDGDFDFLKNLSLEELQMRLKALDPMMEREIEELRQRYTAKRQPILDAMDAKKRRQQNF
Sequence of UniProt Q8IW41 (whole entry, looked up): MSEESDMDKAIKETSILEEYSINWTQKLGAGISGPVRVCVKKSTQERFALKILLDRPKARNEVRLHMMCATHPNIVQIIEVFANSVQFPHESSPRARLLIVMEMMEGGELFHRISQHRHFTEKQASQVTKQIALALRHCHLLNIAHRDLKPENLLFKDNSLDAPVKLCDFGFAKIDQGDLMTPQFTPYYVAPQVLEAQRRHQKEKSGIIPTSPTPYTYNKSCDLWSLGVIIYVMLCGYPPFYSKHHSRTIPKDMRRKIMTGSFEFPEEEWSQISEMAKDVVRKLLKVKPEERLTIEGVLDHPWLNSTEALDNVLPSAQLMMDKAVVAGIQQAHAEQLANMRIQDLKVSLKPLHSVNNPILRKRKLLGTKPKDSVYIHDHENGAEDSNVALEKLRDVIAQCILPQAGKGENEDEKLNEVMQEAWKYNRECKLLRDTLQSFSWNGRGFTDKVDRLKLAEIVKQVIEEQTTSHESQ
Sequence of UniProt O14730 (whole entry, looked up): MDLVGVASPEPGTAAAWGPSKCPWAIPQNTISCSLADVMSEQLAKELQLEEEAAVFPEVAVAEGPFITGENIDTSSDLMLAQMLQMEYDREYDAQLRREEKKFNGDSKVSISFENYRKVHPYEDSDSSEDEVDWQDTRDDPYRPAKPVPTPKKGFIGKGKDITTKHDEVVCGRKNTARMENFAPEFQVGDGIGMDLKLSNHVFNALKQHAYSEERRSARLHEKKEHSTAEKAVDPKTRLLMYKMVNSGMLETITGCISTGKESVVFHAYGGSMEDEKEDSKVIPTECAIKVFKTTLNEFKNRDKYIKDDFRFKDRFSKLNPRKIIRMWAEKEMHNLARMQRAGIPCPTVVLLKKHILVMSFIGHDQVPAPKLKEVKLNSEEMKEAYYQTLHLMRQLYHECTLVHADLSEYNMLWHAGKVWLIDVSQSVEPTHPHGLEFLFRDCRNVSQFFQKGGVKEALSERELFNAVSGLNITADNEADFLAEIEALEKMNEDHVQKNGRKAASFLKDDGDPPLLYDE
Sequence of UniProt Q86Y07 (whole entry, looked up): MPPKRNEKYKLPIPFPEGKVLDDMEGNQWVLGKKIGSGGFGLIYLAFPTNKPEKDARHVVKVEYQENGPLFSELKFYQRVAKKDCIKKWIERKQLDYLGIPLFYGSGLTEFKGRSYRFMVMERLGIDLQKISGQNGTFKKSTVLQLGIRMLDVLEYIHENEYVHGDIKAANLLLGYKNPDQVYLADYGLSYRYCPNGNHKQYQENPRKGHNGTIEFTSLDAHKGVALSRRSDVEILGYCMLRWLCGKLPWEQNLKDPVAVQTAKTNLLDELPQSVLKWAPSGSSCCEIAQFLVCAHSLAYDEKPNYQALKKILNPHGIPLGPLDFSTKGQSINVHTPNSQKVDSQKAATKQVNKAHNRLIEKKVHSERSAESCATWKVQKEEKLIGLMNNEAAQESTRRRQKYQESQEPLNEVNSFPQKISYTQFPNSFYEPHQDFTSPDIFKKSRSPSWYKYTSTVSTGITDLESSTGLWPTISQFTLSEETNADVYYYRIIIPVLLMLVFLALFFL

Study 1 — organism: Plasmodium berghei; action: inhibitor; cell line: Huh-7; strain: GFP-expressing, liver stage; concentration: 10 µM; time: 24 h; reference: untreated control
SMILES	infection rate
C[C@@H](NCCc1ccc(O)cc1)[C@@H](O)c1ccc(O)cc1 (racemic)	98.4%
CC(C)(S)[C@@H](N)C(=O)O	90.2%
c1ccc2[nH]c(-c3cscn3)nc2c1	90.7%
COc1cc(NC(C)CCCN)c2ncccc2c1 (centres unmarked)	66.2%
Cc1cc(-n2c(=O)[nH]c(=O)n(C)c2=O)ccc1Oc1ccc(SC(F)(F)F)cc1	89.6%
Nc1ccc(C(=O)Oc2ccccc2)c(O)c1	102%

Study 2 — cell line: HaCaT; concentration: 100 µM; time: 18 h
Compound	viability
CC[C@H]1OC(=O)[C@H](C)[C@@H](O[C@H]2C[C@@](C)(OC)[C@@H](O)[C@H](C)O2)[C@H](C)[C@@H](O[C@@H]2O[C@H](C)C[C@H](N(C)C)[C@H]2O)[C@](C)(O)C[C@@H](C)CN(C)[C@H](C)[C@@H](O)[C@]1(C)O	117%
CC[C@@H]1/C=C(\C)C[C@H](C)C[C@H](OC)[C@H]2O[C@@](O)(C(=O)C(=O)N3CCCC[C@H]3C(=O)O[C@H](/C(C)=C/[C@@H]3CC[C@H](Cl)[C@H](OC)C3)[C@H](C)[C@@H](O)CC1=O)[C@H](C)C[C@@H]2OC	77.3%
O=C(CCNNC(=O)c1ccncc1)NCc1ccccc1	137%
NC(N)=Nc1nc(CSCCC(N)=NS(N)(=O)=O)cs1	111%
O=C(NCCN1CCOCC1)c1ccc(Cl)cc1	115%

Study 3 — observed: cell-free assay; method: competition with immobilised ligand; concentration: 1 µM
Compound: CO[C@H]1CC[C@H](CNc2ccc(S(=O)(=O)NC(=O)c3ccc(N4CCN(CC5=C(c6ccc(Cl)cc6)CC(C)(C)CC5)CC4)cc3Oc3cnc4[nH]ccc4c3)cc2[N+](=O)[O-])CC1
target	remaining binding [%]
Serine/threonine-protein kinase VRK2 (VRK2, Homo sapiens, UniProt Q86Y07)	71
Ephrin type-A receptor 1 (EPHA1, Homo sapiens, UniProt P21709)	100
Mast/stem cell growth factor receptor Kit (KIT, Homo sapiens, UniProt P10721, D816H)	76
Epidermal growth factor receptor (EGFR, Homo sapiens, UniProt P00533, A750P/del747-749)	58
Platelet-derived growth factor receptor beta (PDGFRB, Homo sapiens, UniProt P09619)	99
Macrophage colony-stimulating factor 1 receptor, autoinhibited (CSF1R, Homo sapiens, UniProt P07333)	88
Serine/threonine-protein kinase RIO3 (RIOK3, Homo sapiens, UniProt O14730)	100
Dual specificity protein kinase CLK2 (CLK2, Homo sapiens, UniProt P49760)	100
Aurora kinase B (AURKB, Homo sapiens, UniProt Q96GD4)	100
Aurora kinase A (AURKA, Homo sapiens, UniProt O14965)	100
Serine/threonine-protein kinase TNNI3K (TNNI3K, Homo sapiens, UniProt Q59H18)	85
Serine/threonine-protein kinase ICK (CILK1, Homo sapiens, UniProt Q9UPZ9)	68
MAP kinase-activated protein kinase 5 (MAPKAPK5, Homo sapiens, UniProt Q8IW41)	82
Cyclin-dependent kinase 14 (CDK14, Homo sapiens, UniProt O94921)	100
Serine/threonine-protein kinase Nek6 (NEK6, Homo sapiens, UniProt Q9HC98)	89

Study 4 — method: competitive binding panel; concentration: 1 µM; reference: vehicle
Structure (SMILES): Cc1ccc(NC(=O)c2ccnc(C(F)(F)F)c2)cc1-c1cc(OCCO)nc(N2CCOCC2)c1
target	measured	remaining binding [%]
Serine/threonine-protein kinase TAO3 (TAOK3, Homo sapiens, UniProt Q9H2K8)	–	89
Mitogen-activated protein kinase kinase kinase 1 (MAP3K1, Homo sapiens, UniProt Q13233)	–	100
Serine/threonine-protein kinase 3 (STK3, Homo sapiens, UniProt Q13188)	MST2	79
Serine/threonine-protein kinase Chk1 (CHEK1, Homo sapiens, UniProt O14757)	–	100
Tyrosine-protein kinase BTK (BTK, Homo sapiens, UniProt Q06187)	–	87
Cyclin-dependent kinase 19 (CDK19, Homo sapiens, UniProt Q9BWU1)	CDK11	98
Vascular endothelial growth factor receptor 3 (FLT4, Homo sapiens, UniProt P35916)	–	79
Serine/threonine-protein kinase PLK4 (PLK4, Homo sapiens, UniProt O00444)	–	75
TGF-beta receptor type-2 (TGFBR2, Homo sapiens, UniProt P37173)	–	100

For quick reference, copied from above (study 3):
target	remaining binding [%]
Macrophage colony-stimulating factor 1 receptor, autoinhibited (CSF1R, Homo sapiens, UniProt P07333)	88
Dual specificity protein kinase CLK2 (CLK2, Homo sapiens, UniProt P49760)	100
Serine/threonine-protein kinase VRK2 (VRK2, Homo sapiens, UniProt Q86Y07)	71
Platelet-derived growth factor receptor beta (PDGFRB, Homo sapiens, UniProt P09619)	99
Epidermal growth factor receptor (EGFR, Homo sapiens, UniProt P00533, A750P/del747-749)	58
